{"data": "Measurements from different studies", "organism": "Pseudomonas aeruginosa", "note": "Protocols differ between the studies behind these lines."}
{"SMILES": "CC[C@H](C)[C@H](NC(=O)[C@H](C)NC(=O)[C@H](C)NC(=O)[C@H](Cc1ccccc1)NC(=O)[C@H](C)NC(=O)CNC(=O)[C@H](Cc1ccccc1)NC(=O)[C@@H](N)Cc1ccccc1)C(=O)N[C@@H](C)C(=O)N[C@@H](CO)C(=O)N[C@@H](CC(C)C)C(=O)N[C@H](C(=O)N[C@H](C(=O)N1CCC[C@H]1C(=O)N[C@@H](CCCCN)C(=O)N[C@@H](CC(C)C)C(=O)N[C@H](C(=O)N[C@@H](CCC(=O)O)C(=O)N[C@@H](CCCCN)C(=O)N[C@H](C(=O)N[C@@H](CCCCN)C(=O)N[C@@H](CCC(N)=O)C(=O)N[C@@H](C)C(=O)N[C@@H](CCCNC(=N)N)C(N)=O)[C@@H](C)CC)[C@@H](C)CC)[C@@H](C)CC)C(C)C", "technique": "broth microdilution", "strain": "ATCC 27853", "MIC": "> 50 µM"}
{"SMILES": "CC(C)C[C@@H]1NC(=O)[C@H](CCN)NC(=O)CSC[C@@H]2NC(=O)[C@H](CC(C)C)NC(=O)[C@H](CC(C)C)NC(=O)[C@H](CCN)NC(=O)[C@H](CCCCNC(=O)[C@H](CCN)NC1=O)NC(=O)[C@H](CCN)NC(=O)[C@H](CC(C)C)NC(=O)[C@H](CCN)NC(=O)CSC[C@@H](C(=O)N[C@@H](CCN)C(N)=O)NC(=O)[C@H](CC(C)C)NC(=O)[C@H](CC(C)C)NC(=O)[C@H](CC(C)C)NC2=O", "strain": "PAO1", "time": "18 h", "MIC": "64 µg/mL"}
{"SMILES": "CC[C@H](C)[C@H](NC(=O)[C@H](CCCCN)NC(=O)[C@H](CCC(=O)O)NC(=O)[C@H](CCCCN)NC(=O)[C@H](CO)NC(=O)[C@H](CCCCN)NC(=O)[C@H](CCCNC(=N)N)NC(=O)[C@H](Cc1ccccc1)NC(=O)[C@H](Cc1ccccc1)NC(=O)[C@H](CC(=O)O)NC(=O)CNC(=O)[C@H](CC(C)C)NC(=O)[C@@H](N)CC(C)C)C(=O)NCC(=O)N[C@@H](CCCCN)C(=O)N[C@@H](CCC(=O)O)C(=O)N[C@@H](Cc1ccccc1)C(=O)N[C@@H](CCCCN)C(=O)N[C@@H](CCCNC(=N)N)C(=O)N[C@H](C(=O)N[C@H](C(=O)N[C@@H](CCC(N)=O)C(=O)N[C@@H](CCCNC(=N)N)C(=O)N[C@H](C(=O)N[C@@H](CCCCN)C(=O)N[C@@H](CC(=O)O)C(=O)N[C@@H](Cc1ccccc1)C(=O)N[C@@H](CC(C)C)C(=O)N[C@@H](CCCNC(=N)N)C(=O)N[C@@H](CC(N)=O)C(=O)N[C@@H](CC(C)C)C(=O)N[C@H](C(=O)N1CCC[C@H]1C(=O)N[C@@H](CCCNC(=N)N)C(=O)N[C@H](C(=O)N[C@@H](CCC(=O)O)C(=O)N[C@@H](CO)C(=O)O)[C@@H](C)O)C(C)C)[C@@H](C)CC)C(C)C)[C@@H](C)CC", "strain": "PAO1 wild type", "sample": "RPMI with 5% LB", "MIC": "16 µM"}
{"SMILES": "CCCCCCCCCCCC(=O)NCCCC[C@@H]1NC(=O)[C@H](CCCNC(=N)N)NC(=O)[C@H](CCCNC(=N)N)NC(=O)[C@H](CCCNC(=N)N)NC(=O)[C@H](CCCNC(=N)N)NC(=O)[C@H](CCCNC(=N)N)NC(=O)[C@H](CCCNC(=N)N)NC1=O", "technique": "broth microdilution", "strain": "PAO1", "temperature": "37 °C", "MIC": "156 µg/mL"}
{"SMILES": "C[C@@H](N)[C@H](O)CCCCCCCC(=O)CCCCCCCCCCCCCC[C@@H](O[C@@H]1O[C@H](CO)[C@H](O)[C@H](O)[C@H]1O)[C@H](N)CO", "observed": "microbial growth", "technique": "resazurin", "strain": "ATCC27853", "time": "6 h", "MIC": "12.2 µM"}
{"SMILES": "c1ccc(CCNC2CCCc3c2[nH]c2ccc(C4CCCCC4)cc32)cc1 (stereo not drawn)", "observed": "microbial growth", "technique": "broth dilution", "strain": "ATCC10145", "MIC": "> 41 µg/mL"}
{"SMILES": "N=C(N)NCCC[C@@H]1NC(=O)[C@H](CCCNC(=N)N)NC(=O)[C@H](CCCNC(=N)N)NC(=O)[C@H](CCCNC(=N)N)NC(=O)[C@H](Cc2c[nH]c3ccccc23)NC(=O)[C@H](CCCNC(=N)N)NC(=O)[C@H](CCCNC(=N)N)NC(=O)[C@@H](N)CCCCn2cc(nn2)C[C@@H](C(N)=O)NC1=O", "strain": "ATCC 27853", "time": "24 h", "temperature": "37 °C", "MIC": "125 µg/mL"}
{"SMILES": "CC[C@H](C)[C@H](NC(=O)[C@H](Cc1c[nH]cn1)NC(=O)[C@H](CCCCNC(=O)[C@@H](NC(=O)[C@H](CCCCN)NC(=O)CSC[C@H](NC(=O)[C@H](Cc1ccccc1)NC(=O)[C@H](CCCCNC(=O)[C@H](CC(C)C)NC(=O)[C@H](CCCCN)NC(=O)[C@H](CCCCN)NC(=O)c1ccc(O[C@@H]2O[C@H](CO)[C@H](O)[C@H](O)[C@H]2O)cc1)NC(=O)[C@H](CC(C)C)NC(=O)[C@H](CCCCN)NC(=O)[C@H](CCCCN)NC(=O)C[C@@H]1O[C@@H](C)[C@@H](O)[C@@H](O)[C@@H]1O)C(N)=O)[C@@H](C)CC)NC(=O)[C@@H](NC(=O)[C@H](CCCCN)NC(=O)CSC[C@H](NC(=O)[C@H](Cc1ccccc1)NC(=O)[C@H](CCCCNC(=O)[C@H](CC(C)C)NC(=O)[C@H](CCCCN)NC(=O)[C@H](CCCCN)NC(=O)c1ccc(O[C@@H]2O[C@H](CO)[C@H](O)[C@H](O)[C@H]2O)cc1)NC(=O)[C@H](CC(C)C)NC(=O)[C@H](CCCCN)NC(=O)[C@H](CCCCN)NC(=O)C[C@@H]1O[C@@H](C)[C@@H](O)[C@@H](O)[C@@H]1O)C(N)=O)[C@@H](C)CC)C(N)=O", "strain": "PAO1", "sample": "LB medium", "MIC": "> 64 µM"}
{"SMILES": "CC(C)[C@H](NC(=O)[C@H](CCCNC(=N)N)NC(=O)[C@H](CCCNC(=N)N)NC(=O)[C@@H](NC(=O)[C@H](C)NC(=O)[C@H](CC(N)=O)NC(=O)[C@H](CCCNC(=N)N)NC(=O)[C@@H](NC(=O)[C@H](CCCNC(=N)N)NC(=O)[C@H](CCCNC(=N)N)NC(=O)[C@@H](NC(=O)[C@@H](NC(=O)[C@H](CCCNC(=N)N)NC(=O)[C@H](CCCNC(=N)N)NC(=O)[C@H](Cc1c[nH]c2ccccc12)NC(=O)[C@H](Cc1c[nH]c2ccccc12)NC(=O)CN)[C@@H](C)O)C(C)C)C(C)C)C(C)C)C(=O)O", "strain": "CMCC 10104", "time": "18 h", "temperature": "37 °C", "MIC": "16 µg/mL"}
{"SMILES": "CC[C@@H](C)[C@@H](NC(=O)[C@@H](CCCCN)NC(=O)[C@H]1CCCN1C(=O)[C@H](NC(=O)[C@@H](CC(C)C)NC(=O)[C@@H](CCCCN)NC(=O)[C@@H](CC(C)C)NC(=O)[C@H](NC(=O)[C@@H](CO)NC(=O)CNC(=O)[C@@H](Cc1ccccc1)NC(=O)[C@H](N)Cc1ccccc1)C(C)C)[C@H](C)CC)C(=O)N[C@H](CC(C)C)C(N)=O", "technique": "broth microdilution", "MIC": "> 100 µM"}
{"SMILES": "CC(C)C[C@H](NC(=O)[C@@H]1CSCC(=O)NCCCC[C@@H]2NC(=O)CSC[C@H](NC(=O)[C@H](CCCCN)NC2=O)C(=O)N[C@@H](CCCCN)C(=O)N[C@@H](CC(C)C)C(=O)N1)C(N)=O", "strain": "PAO1", "time": "18 h", "MIC": "> 256 µg/mL"}
{"SMILES": "CC[C@H](C)CCCCC(=O)N[C@@H](CCN)C(=O)N[C@H](C(=O)N[C@@H](CCN)C(=O)N[C@H]1CCNC(=O)[C@H]([C@@H](C)O)NC(=O)[C@H](CCN)NC(=O)[C@H](CCN)NC(=O)[C@H](CC(C)C)NC(=O)[C@@H](CC(C)C)NC(=O)[C@H](CCN)NC1=O)[C@@H](C)O", "strain": "BAA-2797, multidrug-resistant", "MIC": "4 µg/mL"}
{"note": "Some of these lines once more:"}
{"SMILES": "CC[C@@H](C)[C@@H](NC(=O)[C@@H](CCCCN)NC(=O)[C@H]1CCCN1C(=O)[C@H](NC(=O)[C@@H](CC(C)C)NC(=O)[C@@H](CCCCN)NC(=O)[C@@H](CC(C)C)NC(=O)[C@H](NC(=O)[C@@H](CO)NC(=O)CNC(=O)[C@@H](Cc1ccccc1)NC(=O)[C@H](N)Cc1ccccc1)C(C)C)[C@H](C)CC)C(=O)N[C@H](CC(C)C)C(N)=O", "technique": "broth microdilution", "MIC": "> 100 µM"}
